Assay results from different studies.
Compare with care: the assays were run in different laboratories. “And” joins repeats or separate records; there may be more than shown. ± gives the spread as reported.
UCHL1: Ubiquitin carboxyl-terminal hydrolase isozyme L1 (UCHL1, Homo sapiens, UniProt P09936)
Sequence of UniProt P09936 (whole entry, looked up): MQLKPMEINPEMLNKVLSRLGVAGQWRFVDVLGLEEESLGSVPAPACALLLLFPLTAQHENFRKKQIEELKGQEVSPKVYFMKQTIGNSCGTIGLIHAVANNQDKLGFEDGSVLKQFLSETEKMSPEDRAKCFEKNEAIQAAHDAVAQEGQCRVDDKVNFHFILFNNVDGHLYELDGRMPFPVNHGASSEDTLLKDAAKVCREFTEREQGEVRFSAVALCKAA

Compound | target or system | test | system | setting | how to read | measurement | value
Cc1cc(Nc2cc3ncccc3c(N[C@@H]3C[C@H]4CC[C@@H](C3)N4CCC#N)n2)n[nH]1 | – | – | healthy human subjects | oral, 10 mg, 2 weeks, single ascending dose | – | pruritus incidence | 0%
O=C(c1cccnc1-c1ccncc1)N1CCC(O)(Cc2ccccc2)CC1 | – | – | healthy Japanese adults, plasma | oral, 200 mg single dose | – | AUClast/dose | 3.48 ng·h/mL/mg
CC1(C)CCC(CN2CCN(c3ccc(C(=O)NS(=O)(=O)c4ccc(NCC5CCOCC5)c([N+](=O)[O-])c4)c(Oc4cnc5[nH]ccc5c4)c3)CC2)=C(c2ccc(Cl)cc2)C1 | – | – | patients | oral, dose not given, with: triazole antifungals | baseline: without triazoles | C0 fold change | 1
COc1c(N2C[C@@H]3CCCN[C@@H]3C2)c(F)cc2c(=O)c(C(=O)O)cn(C3CC3)c12 | – | – | male Hartley guinea pigs, anaesthetized | intravenous, 10 mg/kg over 10 min, after infusion | – | mean blood pressure | 32 ± 0.5 mmHg
COc1cc2c3cc1Oc1c(OC)c(OC)cc4c1[C@@H](Cc1ccc(O)c(c1)Oc1ccc(cc1)C[C@@H]3N(C)CC2)N(C)CC4 | – | – | mouse plasma, K3EDTA | 4 h, 25-26 °C, room temperature | – | remaining compound | 92%
Cc1nc(-c2ccc(OCC(C)C)c(C#N)c2)sc1C(=O)O | – | – | healthy Chinese subjects | oral, 40 mg, fed | – | subjects with monocyte count increased | 5%
N#CC(=Cc1ccc(Cl)cc1Cl)C(N)=O | UCHL1 | covalent, intact protein LC-MS | – | 12.5 µM | – | labelling | 38.9%
Cn1c(C(F)(F)F)cc(=O)n(-c2cc(Oc3cccnc3OCC(=O)O)c(Cl)cc2F)c1=O | – | – | beagle dog, female, plasma | oral capsule, 300 mg/kg/day epyrifenacil, day 1, 90-day study | – | Tmax | 9 h
CNCc1ccc(-c2[nH]c3cc(F)cc4c3c2CCNC4=O)cc1 | – | – | patients | oral, 600 mg twice daily, grade 4 | – | constipation incidence | 0%
COc1cc2[nH]c(C)c(-c3ccc(OC(F)(F)F)cc3)c(=O)c2cc1Cl | – | – | PAMPA | pH 7.4 | – | Papp | 6 ×10⁻⁶ cm/s
CCOC(=O)/C(C#N)=C(\O)c1ccc(NC(=O)c2cccs2)cc1 | – | – | sheep erythrocytes | 1 h, pH 7.5 | – | maximum haemolysis | 7.04%
OCCOCc1ccc(-c2noc(-c3ccc(OCC[18F])c(C(F)(F)F)c3)n2)cc1 | – | – | human, extrapolated from Macaca mulatta | 115 MBq, single injection | – | effective dose | 2.6 mSv
COc1ncc(-c2nc3c(n2C(C)C)[C@H](c2ccc(Cl)cc2)N(c2cc(Cl)cn(C)c2=O)C3=O)c(OC)n1 | – | – | human patients, plasma | oral, 12.5 mg, 0-24 h, high-dose arm, cycle 2 day 1 | – | AUC(0-t) geometric mean | 1360 ng·h/mL
N#Cc1ccc2c(c1)[C@H]1CCCN(C(=O)c3ccc4[nH]cnc4c3)[C@H]1C2 | – | – | human | 20 mg, day 7 | baseline: baseline | cortisol level change | -166 nmol/L
Oc1ccc(/C=C/c2cc(O)cc(O)c2)cc1 | – | – | rat, azoxymethane-injected, blood at sacrifice | 100 mg/kg | – | leucine aminopeptidase | 44 IU/L and 40 IU/L and 45 IU/L
Nc1ncnc2c1ncn2[C@@H]1O[C@H](CO)C[C@H]1O | – | LDH release | human ESC-derived lung organoids | concentration not given, 2 days | – | cytotoxicity | 8.56% and 7.33% and 9.68%
C[C@H](CS)C(=O)N1CCC[C@H]1C(=O)O | – | – | male Hartley guinea pigs, anaesthetized | intravenous, 3 mg/kg over 10 min, after infusion | – | mean blood pressure | 25 ± 0.1 mmHg
Cc1ccc(O)c(-n2nc3ccccc3n2)c1 | – | exposure assessment | human, age 16-21 years | sunscreen | – | mean daily dermal uptake | 735 ng/kg body weight/day
COc1cc(N)c(Cl)cc1C(=O)NC1CCN(CCCOc2ccc(F)cc2)CC1OC (centres unmarked) | – | – | male Hartley guinea pigs, anaesthetized | intravenous, 0.3 mg/kg group, baseline before infusion | – | mean blood pressure | 34 ± 0.1 mmHg
CCN1CCN(Cc2ccc(Nc3ncc(F)c(-c4cc(F)c5nc6n(c5c4)[C@H](C)CCC6)n3)nc2)CC1 | – | – | human, Phase Ib patients, plasma | 300 mg, multiple doses, median, with: fulvestrant | – | Tmax | 4.94 h
Cc1c2oc3c(C)ccc(C(=O)N[C@@H]4C(=O)N[C@H](C(C)C)C(=O)N5CCC[C@H]5C(=O)N(C)CC(=O)N(C)[C@@H](C(C)C)C(=O)O[C@@H]4C)c3nc-2c(C(=O)N[C@@H]2C(=O)N[C@H](C(C)C)C(=O)N3CCC[C@H]3C(=O)N(C)CC(=O)N(C)[C@@H](C(C)C)C(=O)O[C@@H]2C)c(N)c1=O | – | – | children with cancer, plasma | dose not given, 30 min | – | maximum plasma concentration | 40.7 µg/L
Cc1cc(NC(=O)c2cccc(NC(=O)/C=C/CN(C)C)c2)ccc1Nc1nccc(-c2cccnc2)n1 | – | – | rat Wistar male, plasma | 1 µM, 30 min | – | remaining compound | 92.7%
CCn1cc(C(=O)N2CCOCC2)c(=O)c2cc(NC3Cc4ccccc4C3)cnc21 | – | – | human, fasted | oral suspension, 300 mg single dose, arithmetic mean | – | AUC(0-inf) | 4930 ng·h/mL
COC(=O)[C@@H]1[C@H]2C[C@H]3c4[nH]c5ccccc5c4CCN3C[C@@H]2CC[C@@H]1O | – | – | rat, brain | intraperitoneal, 1 mg/kg, 1.5 h | – | concentration | 480 nM
COc1nc(-c2cc(C)c(N[C@@H](C)c3cc(F)cc(F)c3)nn2)ccc1-n1cnc(C)c1 | – | – | cynomolgus monkey, male, plasma | intravenous, 1 mg/kg | – | Vss | 0.856 L/kg

Compound | target or system | test | system | setting | how to read | measurement | value
CCNC(=O)c1ncccc1O | – | – | – | – | – | pKa (basic) | 2.5
CC(C)c1nc(N(C)S(C)(=O)=O)nc(-c2ccc(F)cc2)c1/C=C/[C@@H](O)C[C@@H](O)CC(=O)O | – | – | human, plasma | oral, 10 mg, median, range, with: vepdegestrant 200 mg | – | Tlast | 72 h
CN1C(=O)[C@@H](NC(=O)c2nnc(Cc3ccccc3)[nH]2)COc2cccnc21 | – | phase I multiple ascending dose | human, male and female | oral, 50 mg, 14 days | – | participants with any AE of special interest | 12.5%
CCOC(=O)c1cc(Cl)cc(NC(=O)c2sc(Cl)cc2S(=O)(=O)N(C)c2ccc(OCC)c(OC)c2)c1 | – | – | male C57BL/6 mice, brain | intraperitoneal, 10 mg/kg | – | AUC extrapolated fraction | 56.5%
CC[C@H](C)[C@H](NC(=O)CN)C(=O)N[C@@H](C)C(=O)N[C@@H](CCCCN)C(=O)N[C@@H](Cc1ccccc1)C(=O)N[C@H](C(=O)N[C@@H](CCCCN)C(=O)N[C@@H](CCCCN)C(=O)N[C@H](C(=O)N[C@@H](C)C(=O)N[C@@H](CCCCN)C(=O)N[C@@H](C)C(=O)N[C@@H](CC(C)C)C(=O)N[C@@H](CCCNC(=N)N)C(N)=O)[C@@H](C)CC)[C@@H](C)CC | – | circular dichroism at 222 nm | 10 mM SDS | 100 µM, pH 4.0 | – | mean residue ellipticity | -10900 deg cm2/dmol
CN(C)CCCSc1nc(-c2ccccc2)nc2c1CCC2 | Trypanosoma cruzi | reporter translation, Renilla luciferase mRNA translation | cell-free extract | 40 µM | baseline: DMSO | inhibition | -3.2%
CCc1cc(C(=O)NC)c2nccc(N3CCc4c(cc(Cn5ccnc5)cc4-c4cn(C)nc4C(F)(F)F)C3=O)c2c1 | – | – | Sprague Dawley rats | oral, 50 mg/kg once daily, 7 days | – | serum cholesterol | 2.3 ± 0.17 mmol/L
COc1cc2nc(N(CCCN(C)C)C(=O)c3ccc(S(=O)(=O)N4CCc5ccccc54)cc3)sc2cc1OC | Trypanosoma cruzi | reporter translation, Renilla luciferase mRNA translation | cell-free extract | 40 µM | baseline: DMSO | inhibition | 17%
O=C(OC(C(F)(F)F)C(F)(F)F)N1CCN(Cc2cccc(Oc3ccccc3)c2)CC1 | – | PET blocking study | rhesus monkey, brain Pons | 0.1 mg/kg, compound pretreatment, with: [18F]T-401 tracer | – | Ktrans | 0.151 min⁻¹
Cc1ccc([C@@H]2O[C@H](CO)[C@@H](O)[C@H](O)[C@H]2O)cc1Cc1ccc(-c2ccc(F)cc2)s1 | – | – | Japanese type 2 diabetes patients | 200 mg, day 18, 24 h urine collection | baseline: baseline | urinary potassium excretion change | 0.662 mEq
O=C(O)CCC(=O)O.[2H]C([2H])([2H])Oc1cc(C)c2[nH]ccc2c1CN1CC[C@@H](C2CC2)C[C@H]1c1ccc(C(=O)O)cc1 | – | multiple ascending dose | healthy Chinese subjects | 100 mg twice daily | – | subjects with TEAE Eczema | 12.5%
CN(CCCN1CCN(C(=O)CN2CCN(CC(=O)[O-])CCN(CC(=O)[O-])CCN(CC(=O)[O-])CC2)CC1)c1ccc2nccc(C(=O)NCC(=O)N3CC(F)(F)C[C@H]3C#N)c2c1.[68Ga+3] | – | – | mice, HT-1080.hFAP and HT-1080 wild-type xenografts, blood | iv, 500 pmol, 4 h post injection | – | uptake | 0.1 %IA/g
CCc1cc2ncc(CN3CCN(c4ccc(C(=O)NC)nc4)CC3)cc2[nH]c1=O | – | – | male rat, blood | oral, 25 mg/kg/day, 4 weeks | baseline: vehicle control | white blood cell count ratio | 0.64
Cc1ccc(Sc2ccccc2N2CCNCC2)c(C)c1 | – | refers to: blood creatine phosphokinase increased | healthy adult men | oral, 5 mg daily, 12 days | – | participants with TEAE | 0%
CC(C)C[C@H](NC(=O)[C@@H](Cc1c[nH]c2ccccc12)NC(=O)[C@H](Cc1ccc(O)cc1)NC(=O)[C@H](CO)NC(=O)[C@H](Cc1c[nH]c2ccccc12)NC(=O)[C@H](Cc1c[nH]cn1)NC(=O)[C@@H]1CCC(=O)N1)C(=O)N[C@@H](CCCNC(=N)N)C(=O)N1CCC[C@H]1C(=O)NCC(N)=O | – | – | Chinese CPP children, girls | intramuscular, 22.5 mg, 12 months, day 1, month 6 | – | patients, grade ≥3 TEAEs | 0%
Cc1c(-c2ccc(N3CCc4cccc(C(=O)Nc5nc6ccccc6s5)c4C3)nc2C(=O)O)cnn1CC12CC3(C)CC(C)(C1)CC(OCCNCC[C@H](O)CO)(C3)C2 | – | – | beagle dog, male, anaesthetised | intravenous infusion, 0.3 mg/kg/min, 75 min | baseline: vehicle | QTcV interval change | 14 ms
CNC(=O)c1ccc(-c2cnc3ncc(Cc4ccc5ncccc5c4)n3n2)cc1F | – | CTCAE v4.0, any causality | human cancer patients | oral, 600 mg twice daily, expansion, other tumours, RP2D | – | alkaline phosphatase increase incidence (all grades) | 0%
O=C(Nc1nc2cccc(-c3ccc(CN4CCS(=O)(=O)CC4)cc3)n2n1)C1CC1 | – | refers to: arthropod sting allergy | rheumatoid arthritis patients | oral, 200 mg once daily, 4 weeks, any relatedness | – | treatment-emergent adverse events | 0%
COc1ccc2c(=O)n(C)c(-c3ccccc3)nc2c1 | – | – | Sprague-Dawley rat, male, spleen | oral, 30 mg/kg, 2 h | baseline: spleen over plasma | tissue/plasma ratio | 1
COc1ccc([C@@H](O)c2cc(-c3ncnc4cc(N5CCOCC5)ccc34)c(F)cc2Cl)nn1 | – | – | locally advanced rectal cancer patients | 100 mg, with: capecitabine and radiotherapy | – | investigations TEAE | 67%
CCOc1c([C@H](C)n2nc(C)c3c(N)ncnc32)cc(Cl)c(F)c1[C@@H]1CNC(=O)C1 | – | – | previously treated B-cell malignancy patients | oral, up to 15 mg once daily, cycle 1 day 15, within ± except three observations | – | LSM change in PR interval | ≤ 10 ms
CC(C)(C(=O)N1CCOc2c(C#N)cncc2C1)C(F)F | – | refers to: Vomiting | human | oral, 10 mg, CSF pharmacokinetic cohort | – | subjects with adverse event | 16.7%
N#CC(=Cc1ccc(O)c(O)c1)C(=O)Nc1ccccc1F | UCHL1 | covalent, intact protein LC-MS | – | 12.5 µM | – | labelling | 9.71%
CN1CCN(C(=O)CN(c2cc(C(F)(F)F)ccc2Cl)S(=O)(=O)c2ccccc2)CC1 | – | – | – | – | – | pKa | 6.78
Cc1cc(-c2nccc3c2ccn3CC(=O)Nc2ccc(-c3cnccn3)cn2)ccn1 | – | – | healthy human volunteers | oral, 40 mg single dose, single ascending dose | – | application site scab incidence | 0%
